Assay results gathered from unrelated publications.
Each numbered part is a random draw from the data of one study; scales do not carry over between parts. Substitutions count along the parent as printed.

Set 1
Target: UBE2D3 UBC core domain (UniProt P61077)
Method: yeast two-hybrid
Medium: yeast
Setting: mostly zero background
Baseline: not given
Reading: higher = stronger interaction
B1: RUFY1 RING domain (UniProt Q96T51); chain QALKGHAWLKDDEATHCRQCEKEFSISRRKHHCRNCGHIFCNTCSSNELALPSYPKPVRVCDSCHTLLLQRCSSTAS
B2: ZNRF4 RING domain (UniProt Q8WWF5); chain VRTFTWHNDLCAICLDEYEEGDQLKILPCSHTYHCKCIDPWFSQAPRRSCPVCKQSVAATEDSF
B3: BFAR RING domain (UniProt Q9NZS9); chain GPQISVSEFSCHCCYDILVNPTTLNCGHSFCRHCLALWWASSKKTECPECREKWEGFPKVS
B4: HLTF RING domain (UniProt Q14527); chain LILSSGSDEECAICLDSLTVPVITHCAHVFCKPCICQVIQNEQPHAKCPLCRNDIHEDNLLE
B5: MARCHF1 RING domain (UniProt Q8TCQ1); chain TAPRSQSRLSVCPSTQDICRICHCEGDEESPLITPCRCTGTLRFVHQSCLHQWIKSSDTRCCELCKYDFIMETKLKPLRKWE
Construct (chain): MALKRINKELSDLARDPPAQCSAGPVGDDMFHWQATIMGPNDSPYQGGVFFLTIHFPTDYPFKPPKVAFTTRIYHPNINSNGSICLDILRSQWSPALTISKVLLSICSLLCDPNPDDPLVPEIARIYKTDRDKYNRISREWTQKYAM
Sequence | lacZ reporter activity
B1 (RUFY1 RING domain) | 0
LEALSSDFLACKICLEQLRAPKTLPCLHTYCQDCLAQLADGGRVRCPECRETVPVPPEGV (TRIM56 RING domain (UniProt Q9BRZ2)) | 0
B2 (ZNRF4 RING domain) | 12700
EIKEYKARLTCPCCNTRKKDAVLTKCFHVFCFECVRGRYEARQRKCPKCNAAFGAHDFHR (RNF40 RING domain (UniProt O75150)) | 0
ASEEEFQFLRCQQCQAEAKCPKLLPCLHTLCSGCLEASGMQCPICQAPWPLGADTP (PML RING domain (UniProt P29590)) | 0
B3 (BFAR RING domain) | 0
B4 (HLTF RING domain) | 0
B5 (MARCHF1 RING domain) | 0

Set 2
Target: CCNE1, cyclin fold, Cln2 fusion (human)
Method: yeast growth competition, sequencing
Medium: yeast
Setting: strong parent motif
Baseline: not given
Reading: higher = stronger binding
Parent: viral docking peptide; YKVKRRLVFGADD
Change | normalised enrichment score
YKVKRFLVFGADD [R6F] | 1.8
YKPKRRLVFGADD [V3P] | 1.39
YKVKRRLVFGALD [D12L] | 4.67
YKIKRRLVFGADD [V3I] | 2.39
YKVKRRLVFTADD [G10T] | 5.29
YKVKRRLRFGADD [V8R] | 3.9
YKVKRRLVFGCDD [A11C] | 6.21
YKVKRRLVFGAED [D12E] | 5.71

Set 3
Target: HLA class I histocompatibility antigen, A alpha chain, allele A*25:01 (Homo sapiens, UniProt P04439)
Effect on: peptide-MHC binding
Form: peptide
Concentration: concentration not given
Sequence | binding
MKYVWPPIM | inactive
KRLQILGYL | inactive
KLLARFLFE | inactive
VHYGQGWLY | inactive
SCINGQCPY | inactive
GIADFIIFK | inactive
ELFARSSDPR | inactive
LEGLADAIW | inactive

Mixed results
Structure (SMILES) | organism | assay | setting | how to read | endpoint | value
O=C(O)CCCc1ccc(N(CCCl)CCCl)cc1 | Sarcocystis neurona | parasite growth | 10 µM, 96 h, second screen | baseline: untreated | log2 fold change | 0.15

A few entries again (set 2):
Change | normalised enrichment score
YKVKRFLVFGADD [R6F] | 1.8
YKIKRRLVFGADD [V3I] | 2.39
YKVKRRLVFGCDD [A11C] | 6.21
YKVKRRLVFTADD [G10T] | 5.29
